# Measured values from different studies.
# Numbers after ± are the reported error.
Structure (SMILES),tested on,assay,system,conditions,endpoint,value
CC(C)C[C@@H]1C(=O)O[C@H]1C(=O)N[C@H](C(=O)N[C@H](C(=O)OCc1ccccc1)C(C)C)C(C)C,human proteasome β2 subunit,,,,IC50,4.58 ± 0.161 µM
COC[C@@H](NC(C)=O)C(=O)NCc1ccc(COc2ccccc2F)cc1,voltage-gated sodium channel,"peak sodium current, inhibitor, whole-cell patch clamp",CAD,0 mV from -80 mV holding,IC50,4.9 ± 0.9 µM
NC[C@@H]1O[C@H](O[C@H]2[C@@H](O)[C@H](O[C@@H]3[C@@H](O)[C@H](N)C[C@H](N)[C@H]3O[C@H]3O[C@@H]4CO[C@@H](CCc5ccccc5)O[C@H]4[C@H](O)[C@H]3N)O[C@@H]2CO)[C@H](N)[C@@H](O)[C@@H]1O,Mycobacterium smegmatis ribosome wild type,"translation, cell-free luciferase synthesis",,,IC50,0.1 ± 0.03 µg/mL
C[C@H](NC(=O)C1CCNCC1)C(=O)Nc1ccc2c(c1)C(=O)c1ccc(NC(=O)[C@H](C)NC(=O)C3CCNCC3)cc1C2=O,HIV-1 nucleocapsid protein,"TAR/cTAR annealing, inhibitor, gel electrophoresis",,,IC50,> 100 µM
O=[N+]([O-])c1ccc(Cl)c([N+](=O)[O-])c1,cysteine peptide Ac-RFAACAA-COOH,"peptide depletion, DPRA RapidFire-MS/MS",,"24 h, pH 7.5, room temperature, added: 5.0 µM cysteine peptide",IC50,319 µM
O=C(NC(=O)c1c(F)cccc1F)Nc1cc(Cl)c(OC(F)(F)C(F)F)c(Cl)c1,mAb-19F2 (BALB/c mouse monoclonal antibody),"antibody binding, indirect competitive ELISA",,,IC50,> 1 µg/mL
CC[C@H](C)[C@@H](C(=O)O[C@@H](CC(C)C)C(=O)N[C@@H](CC(C)C)C(=O)N[C@@H](C)/C=C/C(=O)N1C(=O)C=C(OC)[C@@H]1C)N(C)C,falcipain 2/2',"enzyme activity, competitive activity-based probe",Plasmodium falciparum,"1 h, added: 1 µM Cy5-DCG-04",IC50,0.0085 ± 0.0013 µM
CC[C@H](C)[C@@H]1C(=O)O[C@H]1C(=O)N[C@H](C(=O)N[C@H](C(=O)OCc1ccccc1)C(C)(C)C)C(C)C,human proteasome β2 subunit,,,,IC50,3.75 ± 0.263 µM
CC(C)(C)N(NC(=O)c1ccccc1)C(=O)c1ccccc1,mAb-19F2 (BALB/c mouse monoclonal antibody),"antibody binding, indirect competitive ELISA",,,IC50,> 1 µg/mL
C=CC(=O)OCCO,cysteine peptide Ac-RFAACAA-COOH,"peptide depletion, DPRA RapidFire-MS/MS",,"24 h, pH 7.5, room temperature, added: 5.0 µM cysteine peptide",IC50,58.2 µM
CC[C@H](C)[C@@H]1C(=O)O[C@H]1C(=O)N[C@H](C(=O)N[C@@H](Cc1ccccc1)C(=O)OCc1ccccc1)C(C)C,human proteasome β2 subunit,,,,IC50,1.78 ± 0.222 µM
N=C(N)NN=C(/C=C/c1ccc([N+](=O)[O-])o1)/C=C/c1ccc([N+](=O)[O-])o1,"ribosome, P. aeruginosa","poly-Phe synthesis, aminoacylation-translation",Pseudomonas aeruginosa,,IC50,23.4 µM
NC[C@@H]1O[C@H](O[C@H]2[C@@H](O)[C@H](O[C@@H]3[C@@H](O)[C@H](N)C[C@H](N)[C@H]3O[C@H]3O[C@H](CO)[C@@H](O)[C@H](O)[C@H]3N)O[C@@H]2CO)[C@H](N)[C@@H](O)[C@@H]1O,Mycobacterium smegmatis ribosome A1408G,"translation, cell-free luciferase synthesis",,,IC50,0.26 ± 0.04 µg/mL
CN[C@@](C)(C[18F])C(=O)O,DU-145 tumour model,,"host not given, pancreas","1 h, tumour-bearing",tracer uptake,28 %ID/g
COCc1cnc(C2=NC(C)(C(C)C)C(=O)N2)c(C(=O)O)c1 (centres unmarked),"acetolactate synthase, Secale cereale (feral rye)","enzyme activity, inhibitor, colorimetric acetoin","population without ALS mutation, crude plant extract","1 h, pH 7, 37 °C, commercial formulation",IC50,16 µM
NC(=O)c1ccsc1NC(=O)Cc1csc2ccccc12,JNK,c-Jun phosphorylation,HeLa GFP-c-Jun,"60 min, added: 2 ng/mL TNF-alpha",IC50,7.5 µM
Cc1cc(O)cc2c1O[C@](C)(CCC[C@H](C)CCC[C@H](C)CCCC(C)C)CC2,COX-1 (rat),thromboxane B2 formation,washed rat platelets,"25 min pretreatment, added: collagen 20 µg/mL",IC50,~25 µM

# Repeated from above:
Structure (SMILES),tested on,assay,system,conditions,endpoint,value
NC(=O)c1ccsc1NC(=O)Cc1csc2ccccc12,JNK,c-Jun phosphorylation,HeLa GFP-c-Jun,"60 min, added: 2 ng/mL TNF-alpha",IC50,7.5 µM
CC(C)C[C@@H]1C(=O)O[C@H]1C(=O)N[C@H](C(=O)N[C@H](C(=O)OCc1ccccc1)C(C)C)C(C)C,human proteasome β2 subunit,,,,IC50,4.58 ± 0.161 µM
